Experimental data pooled from the literature.
Protocols differ between the studies behind these lines. Values joined by “and” are separate records of one study, mostly repeats; a detail may differ. ± gives the spread as reported. Where no end group is shown, it is not given here. [ ]: non-standard residue; d: D form.
HLA class I histocompatibility antigen, A alpha chain allele A*02:01: HLA class I histocompatibility antigen, A alpha chain, allele A*02:01 (Homo sapiens, UniProt P04439)
HLA class I histocompatibility antigen, A alpha chain allele A*01:01: HLA class I histocompatibility antigen, A alpha chain, allele A*01:01 (Homo sapiens, UniProt P04439)
Fibroin-modulator-binding protein-1: Fibroin-modulator-binding protein-1 99-193 (Bombyx mori, UniProt Q5FBS0)
Chain of UniProt P48067 (whole entry, looked up): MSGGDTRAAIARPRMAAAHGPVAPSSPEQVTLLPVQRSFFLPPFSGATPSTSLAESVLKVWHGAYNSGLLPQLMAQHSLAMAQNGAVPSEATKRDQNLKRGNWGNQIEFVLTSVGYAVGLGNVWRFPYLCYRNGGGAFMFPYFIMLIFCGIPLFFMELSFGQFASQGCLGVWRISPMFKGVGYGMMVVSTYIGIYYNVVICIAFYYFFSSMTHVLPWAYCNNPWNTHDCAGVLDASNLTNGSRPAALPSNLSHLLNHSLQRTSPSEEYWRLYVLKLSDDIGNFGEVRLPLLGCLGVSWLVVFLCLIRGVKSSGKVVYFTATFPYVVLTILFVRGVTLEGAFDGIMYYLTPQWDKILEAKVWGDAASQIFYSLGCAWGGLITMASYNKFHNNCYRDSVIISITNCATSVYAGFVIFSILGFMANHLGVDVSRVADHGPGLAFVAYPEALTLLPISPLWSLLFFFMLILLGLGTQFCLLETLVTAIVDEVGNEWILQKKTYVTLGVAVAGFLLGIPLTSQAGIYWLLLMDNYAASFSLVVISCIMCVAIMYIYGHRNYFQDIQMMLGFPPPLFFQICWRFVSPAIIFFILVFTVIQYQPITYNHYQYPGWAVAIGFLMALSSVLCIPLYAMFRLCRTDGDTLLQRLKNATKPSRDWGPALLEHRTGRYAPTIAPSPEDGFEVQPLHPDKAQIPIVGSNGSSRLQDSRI
Chain of UniProt Q64663 (whole entry, unmodified, looked up): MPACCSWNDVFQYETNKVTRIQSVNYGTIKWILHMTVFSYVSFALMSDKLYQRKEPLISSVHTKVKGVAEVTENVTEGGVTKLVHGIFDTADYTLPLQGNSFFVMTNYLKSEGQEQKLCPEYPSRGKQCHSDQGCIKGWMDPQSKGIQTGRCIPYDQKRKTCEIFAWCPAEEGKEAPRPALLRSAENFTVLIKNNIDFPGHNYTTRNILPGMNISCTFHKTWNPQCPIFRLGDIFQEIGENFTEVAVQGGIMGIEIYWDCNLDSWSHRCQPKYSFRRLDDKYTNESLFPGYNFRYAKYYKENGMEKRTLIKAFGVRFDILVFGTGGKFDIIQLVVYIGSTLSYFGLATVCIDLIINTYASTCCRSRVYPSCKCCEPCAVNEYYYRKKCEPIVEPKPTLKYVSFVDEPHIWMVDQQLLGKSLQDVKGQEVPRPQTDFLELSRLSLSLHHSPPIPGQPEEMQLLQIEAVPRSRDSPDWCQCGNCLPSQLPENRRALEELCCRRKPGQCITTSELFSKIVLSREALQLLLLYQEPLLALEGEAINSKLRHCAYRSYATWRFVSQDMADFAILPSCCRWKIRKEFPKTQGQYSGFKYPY
Chain of UniProt P00690 (whole entry, looked up): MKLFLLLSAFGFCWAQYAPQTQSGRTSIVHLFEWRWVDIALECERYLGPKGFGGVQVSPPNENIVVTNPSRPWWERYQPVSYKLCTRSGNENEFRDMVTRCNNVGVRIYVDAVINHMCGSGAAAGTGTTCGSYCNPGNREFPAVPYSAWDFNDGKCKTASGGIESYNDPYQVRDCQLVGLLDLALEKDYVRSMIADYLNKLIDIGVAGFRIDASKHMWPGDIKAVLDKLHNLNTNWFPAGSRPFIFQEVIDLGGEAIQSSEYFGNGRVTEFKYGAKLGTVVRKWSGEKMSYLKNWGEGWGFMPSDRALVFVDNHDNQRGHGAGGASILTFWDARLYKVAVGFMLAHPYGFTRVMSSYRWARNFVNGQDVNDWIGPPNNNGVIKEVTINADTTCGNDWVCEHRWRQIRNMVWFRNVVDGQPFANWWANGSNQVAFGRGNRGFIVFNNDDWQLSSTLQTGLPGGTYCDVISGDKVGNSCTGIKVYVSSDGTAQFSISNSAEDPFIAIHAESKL
Chain of UniProt P35222 (whole entry, looked up): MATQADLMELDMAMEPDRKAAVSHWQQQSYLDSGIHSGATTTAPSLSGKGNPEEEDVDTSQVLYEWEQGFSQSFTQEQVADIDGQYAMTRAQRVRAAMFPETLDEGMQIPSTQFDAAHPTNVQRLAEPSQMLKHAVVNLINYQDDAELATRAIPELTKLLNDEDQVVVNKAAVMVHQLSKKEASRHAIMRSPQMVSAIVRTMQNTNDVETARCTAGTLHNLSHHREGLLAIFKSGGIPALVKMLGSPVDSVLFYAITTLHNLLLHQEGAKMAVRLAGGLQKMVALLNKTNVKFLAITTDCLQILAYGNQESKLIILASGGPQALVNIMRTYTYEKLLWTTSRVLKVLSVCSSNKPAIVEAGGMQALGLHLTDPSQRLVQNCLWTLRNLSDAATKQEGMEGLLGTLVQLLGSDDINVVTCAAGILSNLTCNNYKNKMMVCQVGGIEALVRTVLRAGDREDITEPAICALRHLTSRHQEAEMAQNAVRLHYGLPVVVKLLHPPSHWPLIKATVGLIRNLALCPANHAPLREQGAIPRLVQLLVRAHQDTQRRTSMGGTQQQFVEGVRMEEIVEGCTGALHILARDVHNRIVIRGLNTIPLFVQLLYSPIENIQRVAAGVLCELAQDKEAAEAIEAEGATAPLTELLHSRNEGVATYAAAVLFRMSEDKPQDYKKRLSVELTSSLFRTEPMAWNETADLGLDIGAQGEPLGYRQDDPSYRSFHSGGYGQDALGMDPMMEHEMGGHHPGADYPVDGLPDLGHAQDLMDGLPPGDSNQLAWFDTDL
Chain of UniProt P01100 (whole entry, looked up): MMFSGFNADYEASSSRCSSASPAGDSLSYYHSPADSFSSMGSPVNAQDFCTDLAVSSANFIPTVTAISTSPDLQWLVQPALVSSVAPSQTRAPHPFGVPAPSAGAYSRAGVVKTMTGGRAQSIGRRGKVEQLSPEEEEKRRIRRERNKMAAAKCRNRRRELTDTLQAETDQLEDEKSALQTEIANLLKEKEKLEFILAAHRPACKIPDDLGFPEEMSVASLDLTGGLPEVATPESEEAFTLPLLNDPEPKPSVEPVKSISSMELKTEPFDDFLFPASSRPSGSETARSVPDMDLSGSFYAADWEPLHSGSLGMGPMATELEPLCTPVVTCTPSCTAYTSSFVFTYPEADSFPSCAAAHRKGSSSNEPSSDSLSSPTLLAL
Chain of UniProt Q14160 (whole entry, looked up): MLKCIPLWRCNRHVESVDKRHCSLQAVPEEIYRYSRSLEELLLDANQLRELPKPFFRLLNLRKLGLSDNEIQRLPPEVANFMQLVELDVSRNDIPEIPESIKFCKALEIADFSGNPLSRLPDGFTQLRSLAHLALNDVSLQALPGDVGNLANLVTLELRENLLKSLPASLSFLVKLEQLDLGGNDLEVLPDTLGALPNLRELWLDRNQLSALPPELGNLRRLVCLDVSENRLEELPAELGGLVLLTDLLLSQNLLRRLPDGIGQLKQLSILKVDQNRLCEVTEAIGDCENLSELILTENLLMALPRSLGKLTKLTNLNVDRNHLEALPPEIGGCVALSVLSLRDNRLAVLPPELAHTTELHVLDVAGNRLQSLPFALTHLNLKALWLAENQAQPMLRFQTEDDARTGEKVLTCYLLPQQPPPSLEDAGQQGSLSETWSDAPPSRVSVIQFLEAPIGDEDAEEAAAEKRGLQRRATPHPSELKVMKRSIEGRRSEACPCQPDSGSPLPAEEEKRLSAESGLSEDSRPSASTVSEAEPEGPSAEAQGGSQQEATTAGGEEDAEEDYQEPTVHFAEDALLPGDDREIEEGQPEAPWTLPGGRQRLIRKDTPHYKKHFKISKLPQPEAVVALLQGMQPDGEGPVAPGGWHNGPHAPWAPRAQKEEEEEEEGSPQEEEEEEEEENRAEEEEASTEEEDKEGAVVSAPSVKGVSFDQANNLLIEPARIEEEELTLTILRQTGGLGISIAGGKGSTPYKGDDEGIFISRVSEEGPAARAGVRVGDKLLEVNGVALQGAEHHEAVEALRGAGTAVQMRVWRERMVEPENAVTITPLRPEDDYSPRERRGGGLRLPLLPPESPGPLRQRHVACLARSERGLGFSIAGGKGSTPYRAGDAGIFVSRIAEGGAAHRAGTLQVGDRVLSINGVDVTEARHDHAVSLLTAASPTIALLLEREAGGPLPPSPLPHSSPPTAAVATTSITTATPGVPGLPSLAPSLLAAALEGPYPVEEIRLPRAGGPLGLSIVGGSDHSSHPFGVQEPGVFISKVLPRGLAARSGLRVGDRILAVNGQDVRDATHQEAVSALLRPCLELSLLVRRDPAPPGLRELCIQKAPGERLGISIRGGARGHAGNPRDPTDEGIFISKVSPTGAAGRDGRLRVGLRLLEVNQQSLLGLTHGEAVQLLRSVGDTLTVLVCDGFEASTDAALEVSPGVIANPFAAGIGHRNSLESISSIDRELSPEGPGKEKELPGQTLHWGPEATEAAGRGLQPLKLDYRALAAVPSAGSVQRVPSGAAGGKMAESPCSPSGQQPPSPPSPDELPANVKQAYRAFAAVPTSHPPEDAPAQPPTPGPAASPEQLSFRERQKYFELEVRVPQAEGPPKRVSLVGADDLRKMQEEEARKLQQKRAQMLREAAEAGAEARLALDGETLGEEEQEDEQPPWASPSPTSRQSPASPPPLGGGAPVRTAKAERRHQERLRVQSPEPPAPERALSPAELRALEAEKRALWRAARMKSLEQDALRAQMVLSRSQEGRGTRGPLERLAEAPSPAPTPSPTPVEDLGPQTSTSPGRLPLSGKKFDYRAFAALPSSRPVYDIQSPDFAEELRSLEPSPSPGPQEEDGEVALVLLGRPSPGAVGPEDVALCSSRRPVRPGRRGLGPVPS
Chain of UniProt Q8WTS6 (whole entry, looked up): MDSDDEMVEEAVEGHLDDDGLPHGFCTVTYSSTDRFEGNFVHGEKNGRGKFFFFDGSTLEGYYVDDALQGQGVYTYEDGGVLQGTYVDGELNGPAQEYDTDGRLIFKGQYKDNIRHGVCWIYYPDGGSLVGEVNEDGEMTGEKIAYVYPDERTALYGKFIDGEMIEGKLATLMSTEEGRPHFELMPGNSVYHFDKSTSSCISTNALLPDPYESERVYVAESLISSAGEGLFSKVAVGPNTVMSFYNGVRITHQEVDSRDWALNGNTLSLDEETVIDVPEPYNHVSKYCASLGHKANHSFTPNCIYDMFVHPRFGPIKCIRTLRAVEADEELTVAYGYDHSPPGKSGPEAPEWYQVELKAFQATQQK

Substance = IMQLMPFGCL; target = HLA class I histocompatibility antigen, A alpha chain allele A*02:01; test = conformational ELISA; system = peptide; conditions = concentration not given; how to read = relative to: positive control peptide, direction not given; endpoint = binding score; value = 33.5%
Substance = D-AP5; target = Glutamate NMDA receptor; GRIN1/GRIN2B (GRIN1/GRIN2B, Homo sapiens, UniProt Q05586+Q13224); test = ion current, antagonist, whole-cell patch clamp; system = HEK293T cells; conditions = concentration not given; endpoint = inhibition; value = 86.59 ± 0.01%
Substance = DQVNTVGIPI; target = Protein scribble homolog, PDZ3 domain (SCRIB, Homo sapiens, UniProt Q14160); test = binding, fluorescence polarization; system = peptide, solution; conditions = Scribble PDZ3 domain; endpoint = Kd; value = 100 µM
Substance = MPFGSLLDY; target = HLA class I histocompatibility antigen, A alpha chain allele A*01:01; test = conformational ELISA; system = peptide; conditions = concentration not given; how to read = relative to: positive control peptide, direction not given; endpoint = binding score; value = 1%
Substance = alpinetin; target = Pancreatic alpha-amylase (AMY2, Sus scrofa, UniProt P00690); test = enzyme activity, inhibitor; conditions = concentration not given, with: CNP-G3 substrate; endpoint = inhibition; value = 34.8% and 33.4%
Substance = BzATP; target = P2X purinoceptor 7 (P2rx7, Rattus norvegicus, UniProt Q64663, I214A/Q143A); test = ion current, agonist, two-electrode voltage clamp; system = Xenopus oocytes; conditions = 1.2 µM; endpoint = normalized current; value = 0
Substance = GCACGCACGCAC (dsDNA); target = Fibroin-modulator-binding protein-1; test = ITC; system = double-stranded DNA, one strand shown; endpoint = Kd; value = 7.74 ± 0.886 µM
Substance = QLMPFGSLLDY; target = HLA class I histocompatibility antigen, A alpha chain allele A*01:01; test = complex stability, off-rate; system = peptide; conditions = 37 °C; endpoint = half-life of peptide-HLA complex; value = 36 min
Substance = DFIPPYVDFPPRLPIFR; target = Catenin beta-1 (CTNNB1, Homo sapiens, UniProt P35222); test = immunoblot; system = peptide, DLD-1, cytosolic fraction; how to read = relative to: non-transfected cells; endpoint = degradation; value = > 50%
Substance = [Aib][Aib]IA (Aib = CC(C)(N)C(=O)O); target = Amyloid-beta precursor protein (APP, Homo sapiens, UniProt P05067); test = aggregation, ThT fluorescence; conditions = 24 h, 37 °C, Aβ to peptide ratio 1:5, with: Aβ1–42 2 µM; how to read = relative to: Aβ1–42 alone, lower is stronger inhibition; endpoint = ThT fluorescence; value = 79%
Substance = GRTMQTARKSTGG; target = Histone-lysine N-methyltransferase SETD7 (SETD7, Homo sapiens, UniProt Q8WTS6); test = histone H3 methylation, inhibitor, western blot; system = peptide; conditions = 100 µM, 30 min, enzyme 500 nM, with: full-length H3, SAM 30 µM; how to read = relative to: no inhibitor; endpoint = H3K4me1 level; value = 91 ± 12%
Substance = NEKEELKSKKAELRNRIEQLKQKREQLKQKIANLRKEIEAYK; target = Protein c-Fos (FOS, Homo sapiens, UniProt P01100); test = heterodimer thermal denaturation, CD; system = peptide, 1 M GuHCl; conditions = 4 µM total peptide, pH 7.4; endpoint = Tm; value = 43.6 °C
Substance = methyl-β-cyclodextrin; target = Sodium- and chloride-dependent glycine transporter 1 (SLC6A9, Homo sapiens, UniProt P48067); test = transport activity, [3H]glycine uptake; conditions = 2.5 mg/mL, 1 min, with: glycine 600 µM; how to read = higher = more transport; endpoint = glycine uptake rate; value = 50.7 a.u. and 63.3 a.u. and 66.6 a.u. and 67.4 a.u. and 61.9 a.u.
Substance = LTLGEFLKL; target = HLA class I histocompatibility antigen, A alpha chain allele A*02:01; test = HLA-A2 stabilization, peptide titration; system = peptide, T2; conditions = 20 h, 37 °C, with: human β2-microglobulin 100 ng/mL; how to read = relative to: HIVpol reference peptide, lower is stronger; endpoint = relative affinity; value = 32.1
Substance = QLMPFGSLL; target = HLA class I histocompatibility antigen, A alpha chain allele A*02:01; test = conformational ELISA; system = peptide; conditions = concentration not given; how to read = relative to: positive control peptide, direction not given; endpoint = binding score; value = 88.8%
Substance = 11-deoxycorticosterone; target = CYP11B2 (human); test = substrate binding, stopped-flow global kinetic fitting; system = purified enzyme; conditions = 3-state induced fit model, with: equimolar adrenodoxin; endpoint = rate constant k2; value = 0.00487 ± 0.0867 s⁻¹
Substance = IMQLMPFGC; target = HLA class I histocompatibility antigen, A alpha chain allele A*02:01; test = conformational ELISA; system = peptide; conditions = concentration not given; how to read = relative to: positive control peptide, direction not given; endpoint = binding score; value = 62.7%
Substance = CCCACCCACCCA (dsDNA); target = Fibroin-modulator-binding protein-1; test = ITC; system = double-stranded DNA, one strand shown; endpoint = Kd; value = 4.14 ± 0.407 µM

Excerpt of the above:
Substance = IMQLMPFGC; target = HLA class I histocompatibility antigen, A alpha chain allele A*02:01; test = conformational ELISA; system = peptide; conditions = concentration not given; how to read = relative to: positive control peptide, direction not given; endpoint = binding score; value = 62.7%
